Results gathered from unrelated publications.
A part holds a random share of what one study measured. Positions count from the first letter of the parent shown.

Series 1 — technique: DHFR PCA, deep sequencing; matrix: yeast; added: (+)-ABA 0.0091 µM; reference: wild-type fitted maximum; direction: higher = stronger binding; measurement: relative binding score
Target: ABI1, truncated, D143A, DHFR fusion (Arabidopsis thaliana)
Setting: methotrexate growth selection, single substitutions
Starting sequence: PYL1, truncated, DHFR fusion (Arabidopsis thaliana); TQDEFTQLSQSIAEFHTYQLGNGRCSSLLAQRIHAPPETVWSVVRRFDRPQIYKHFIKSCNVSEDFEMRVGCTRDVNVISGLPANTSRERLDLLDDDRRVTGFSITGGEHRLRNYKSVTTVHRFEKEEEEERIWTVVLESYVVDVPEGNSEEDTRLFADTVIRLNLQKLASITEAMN; partner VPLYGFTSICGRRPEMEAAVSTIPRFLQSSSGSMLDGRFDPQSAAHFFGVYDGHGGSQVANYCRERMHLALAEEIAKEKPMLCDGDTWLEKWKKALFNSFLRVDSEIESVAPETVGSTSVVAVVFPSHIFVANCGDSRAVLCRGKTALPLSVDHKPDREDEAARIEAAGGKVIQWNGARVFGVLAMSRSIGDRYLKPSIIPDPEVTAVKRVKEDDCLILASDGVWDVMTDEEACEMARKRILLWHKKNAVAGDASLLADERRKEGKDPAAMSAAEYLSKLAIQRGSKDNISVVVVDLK
C25I: 58.5%
L112Y: 4.66%
F124E: 6.14%
N149H: 29.8%
L93D: -7.96%
D3C: 13.7%
I33N: -3.81%
K126M: 44.8%
S26G: 18.4%
V145H: -4.18%
T120G: -11.9%
H110T: 47.7%
A30F: 17.2%
S27I: -0.0335%
H16N: -1.32%
Y18A: -0.00651%

Series 2 — target: CCNE1, cyclin fold, Cln2 fusion (human); technique: yeast growth competition, sequencing; matrix: yeast; setting: strong parent motif; reference: not given; direction: higher = stronger binding; measurement: normalised enrichment score
Starting sequence: CDKN1B docking peptide (human); PSACRNLFGPVDH; partner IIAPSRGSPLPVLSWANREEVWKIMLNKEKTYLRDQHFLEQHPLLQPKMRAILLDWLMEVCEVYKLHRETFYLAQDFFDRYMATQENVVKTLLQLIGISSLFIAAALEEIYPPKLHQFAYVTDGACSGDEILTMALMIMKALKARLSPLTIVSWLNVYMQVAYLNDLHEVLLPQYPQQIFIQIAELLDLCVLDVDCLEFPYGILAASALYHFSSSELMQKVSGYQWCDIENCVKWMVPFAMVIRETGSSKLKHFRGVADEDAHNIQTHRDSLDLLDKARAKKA
P10D: 3.23
S2H: 2.53
A3T: 1.25
F8K: 0.188
F8Q: 0.0846
P1Y: 3.03
A3E: 1.17
R5V: 0.768
A3D: 0.124
P1A: 3.76
F8P: -0.0251
G9Q: 1.5
A3H: 2.97
N6K: 3.95
H13K: 3.31

Series 3 — technique: protein-binding microarray; molecule type: double-stranded DNA, one strand shown; matrix: in vitro; concentration: 2540 nM top; setting: 60-bp whole probe; added: salmon DNA 0.4 mg/ml; reference: random background probes; direction: higher = stronger binding; measurement: fitted relative affinity; all sequences stand within: GCCTAGCAC … GTCTTGATTCGCTTGACGCTGCTG
Target: Interferon regulatory factor 3, full length, phosphomimetic (IRF3, Homo sapiens, UniProt Q14653, residues 1-427, S386D/S396D/S398D/S402D/T404D/S405D)
Target sequence (chain): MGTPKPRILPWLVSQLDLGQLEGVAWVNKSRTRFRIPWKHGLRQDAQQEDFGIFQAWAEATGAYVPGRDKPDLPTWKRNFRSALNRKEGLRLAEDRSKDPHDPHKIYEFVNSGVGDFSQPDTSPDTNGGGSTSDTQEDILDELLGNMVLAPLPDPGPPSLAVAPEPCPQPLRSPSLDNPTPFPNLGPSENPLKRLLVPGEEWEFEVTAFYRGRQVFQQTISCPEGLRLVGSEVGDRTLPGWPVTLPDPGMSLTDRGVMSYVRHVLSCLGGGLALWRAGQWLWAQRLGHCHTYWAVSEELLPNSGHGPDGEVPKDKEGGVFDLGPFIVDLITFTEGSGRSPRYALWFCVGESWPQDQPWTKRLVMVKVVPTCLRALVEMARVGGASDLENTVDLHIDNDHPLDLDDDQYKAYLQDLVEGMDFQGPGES
GCGCCTTGATGTCTGGGTCTGTGCTAG: -0.638 z-score
TTCCTTTCTCTTCCGTTAGCGTGCTAG: 5.16 z-score
TTAGGACTGGTGACTGGGTTAGTGCTA: -1.09 z-score
GACGGTATCGTGACTGGGGACGTGCTA: 0.413 z-score
GACGGACTGGACTATCGGGAGGTGCTA: -0.553 z-score
TTAGATCTCAGTGTCGATTAGTGCTAG: 0.236 z-score
CTGTCATCATCGTTCCCAGCGTGCTAG: 0.305 z-score
GACGGTTCCGGGTTCGGGACGTGCTAG: 1.74 z-score
GACGGACTGGAATTTCGGGACGTGCTA: -0.0287 z-score
TCACCACTCTTTCCTCACACTGTGCTA: 1.2 z-score
GACGGTCGCCTTTTCCTGACGTGCTAG: 2.12 z-score
CTTTACATGAGTTTAGAGCCGTGCTAG: 0.488 z-score
TTAGATCTCAGTCTCGATCAGTGCTAG: 0.444 z-score
GACGAAATCAGACTGGAGACGTGCTAG: 0.0887 z-score
TTAGAACTGAGACGGGATTAGTGCTAG: -0.39 z-score
ATGCATTGTTATTTGTCAATGTGCTAG: 0.167 z-score
GTATATATAATATATATTCATGTGCTA: 0.361 z-score
GACGGTCTCGGTTTAGGGACGTGCTAG: 1.99 z-score
TCAGGTATAAACTTGGGACTGTGCTAG: -0.402 z-score

Series 4 — target: UBE2H UBC core domain (UniProt P62256); technique: yeast two-hybrid; matrix: yeast; setting: mostly zero background; reference: not given; direction: higher = stronger interaction; measurement: lacZ reporter activity
Chain of UniProt P62256 (whole entry, looked up): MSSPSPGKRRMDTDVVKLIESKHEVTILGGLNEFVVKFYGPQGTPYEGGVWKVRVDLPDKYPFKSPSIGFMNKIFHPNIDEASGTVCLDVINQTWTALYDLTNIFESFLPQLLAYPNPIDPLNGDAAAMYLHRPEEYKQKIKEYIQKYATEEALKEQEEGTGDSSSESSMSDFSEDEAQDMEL
B1: TRIM15 RING domain (UniProt Q9C019); chain SLKVVHELPACTLCAGPLEDAVTIPCGHTFCRLCLPALSQMGAQSSGKILLCPLCQEEEQAETPMA
B2: TRIM55 RING domain (UniProt Q9BYV6); chain TMDNLEKQLICPICLEMFTKPVVILPCQHNLCRKCASDIFQASNPYLPTRGGTTMASGGRFRCPSCRHEVVLDRHG
B3: PEX2 RING domain (UniProt P28328); chain DNTLATSGKECALCGEWPTMPHTIGCEHIFCYFCAKSSFLFDVYFTCPKCGTEVHSLQPLK
B4: TRIM38 RING domain (UniProt O00635); chain STKKMMEEATCSICLSLMTNPVSINCGHSYCHLCITDFFKNPSQKQLRQETFCCPQCRAPFHMDSLRP
B5: RNF5 RING domain (UniProt Q99942); chain ERGGAGATFECNICLETAREAVVSVCGHLYCWPCLHQWLETRPERQECPVCKAGISREKVVP
B6: RFPL2 RING domain (UniProt O75678); chain MAALFQEASSCPVCSDYLEKPMSLECGCAVCLKCINSLQKEPHGEDLLCCCSSMVSRKNKIRR
B7: RNF14 RING domain (UniProt Q9UBS8); chain IKCFNSKLFLCSICFCEKLGSECMYFLECRHVYCKACLKDYFEIQIRDGQVQCLNCPEPKCPSVATPGQVK
B1 (TRIM15 RING domain): 0
B2 (TRIM55 RING domain): 0
B3 (PEX2 RING domain): 0
B4 (TRIM38 RING domain): 0
B5 (RNF5 RING domain): 0
B6 (RFPL2 RING domain): 0
B7 (RNF14 RING domain): 0

Some of these lines once more (series 1):
Y18A: -0.00651%
V145H: -4.18%
D3C: 13.7%
H16N: -1.32%
N149H: 29.8%
L93D: -7.96%
